Published values pooled from the literature.
Each line is one published result; not all experiments were run side by side.
MAOB: Amine oxidase [flavin-containing] B (MAOB, Homo sapiens, UniProt P27338)
Sequence of UniProt P27338 (whole entry, looked up): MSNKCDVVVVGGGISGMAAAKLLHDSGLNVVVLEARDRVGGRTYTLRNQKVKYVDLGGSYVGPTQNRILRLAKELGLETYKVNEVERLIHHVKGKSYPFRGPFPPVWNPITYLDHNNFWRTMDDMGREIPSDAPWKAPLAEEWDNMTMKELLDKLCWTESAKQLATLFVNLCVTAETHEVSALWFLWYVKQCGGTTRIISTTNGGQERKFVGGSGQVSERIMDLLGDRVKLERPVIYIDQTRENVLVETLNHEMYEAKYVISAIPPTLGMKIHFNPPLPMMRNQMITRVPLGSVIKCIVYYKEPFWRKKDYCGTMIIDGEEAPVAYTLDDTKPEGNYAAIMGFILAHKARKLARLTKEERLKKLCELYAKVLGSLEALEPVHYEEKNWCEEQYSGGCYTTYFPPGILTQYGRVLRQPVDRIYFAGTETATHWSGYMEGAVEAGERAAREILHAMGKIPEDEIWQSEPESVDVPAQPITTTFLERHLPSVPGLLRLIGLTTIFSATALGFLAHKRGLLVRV
PADI4: Protein-arginine deiminase type-4 (PADI4, Homo sapiens, UniProt Q9UM07)
Sequence of UniProt Q9UM07 (whole entry, looked up): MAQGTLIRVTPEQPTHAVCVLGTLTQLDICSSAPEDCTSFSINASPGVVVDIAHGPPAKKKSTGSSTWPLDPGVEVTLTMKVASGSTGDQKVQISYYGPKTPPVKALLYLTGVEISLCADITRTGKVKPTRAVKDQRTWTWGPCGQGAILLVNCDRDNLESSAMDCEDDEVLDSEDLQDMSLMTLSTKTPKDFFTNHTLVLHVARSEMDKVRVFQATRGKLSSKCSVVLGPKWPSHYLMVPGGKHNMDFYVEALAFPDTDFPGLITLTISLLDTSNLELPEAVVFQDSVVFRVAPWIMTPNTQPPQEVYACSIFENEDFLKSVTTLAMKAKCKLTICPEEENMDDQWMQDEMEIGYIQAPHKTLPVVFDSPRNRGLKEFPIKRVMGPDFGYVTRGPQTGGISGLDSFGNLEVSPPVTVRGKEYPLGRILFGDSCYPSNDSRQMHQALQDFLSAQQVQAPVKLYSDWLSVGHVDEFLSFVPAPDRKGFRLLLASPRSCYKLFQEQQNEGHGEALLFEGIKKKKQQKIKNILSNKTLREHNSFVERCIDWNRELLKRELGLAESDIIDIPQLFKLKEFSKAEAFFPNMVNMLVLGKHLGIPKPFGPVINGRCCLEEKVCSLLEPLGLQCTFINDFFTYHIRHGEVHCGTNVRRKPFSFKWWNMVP
Sequence of UniProt Q92793 (whole entry, looked up): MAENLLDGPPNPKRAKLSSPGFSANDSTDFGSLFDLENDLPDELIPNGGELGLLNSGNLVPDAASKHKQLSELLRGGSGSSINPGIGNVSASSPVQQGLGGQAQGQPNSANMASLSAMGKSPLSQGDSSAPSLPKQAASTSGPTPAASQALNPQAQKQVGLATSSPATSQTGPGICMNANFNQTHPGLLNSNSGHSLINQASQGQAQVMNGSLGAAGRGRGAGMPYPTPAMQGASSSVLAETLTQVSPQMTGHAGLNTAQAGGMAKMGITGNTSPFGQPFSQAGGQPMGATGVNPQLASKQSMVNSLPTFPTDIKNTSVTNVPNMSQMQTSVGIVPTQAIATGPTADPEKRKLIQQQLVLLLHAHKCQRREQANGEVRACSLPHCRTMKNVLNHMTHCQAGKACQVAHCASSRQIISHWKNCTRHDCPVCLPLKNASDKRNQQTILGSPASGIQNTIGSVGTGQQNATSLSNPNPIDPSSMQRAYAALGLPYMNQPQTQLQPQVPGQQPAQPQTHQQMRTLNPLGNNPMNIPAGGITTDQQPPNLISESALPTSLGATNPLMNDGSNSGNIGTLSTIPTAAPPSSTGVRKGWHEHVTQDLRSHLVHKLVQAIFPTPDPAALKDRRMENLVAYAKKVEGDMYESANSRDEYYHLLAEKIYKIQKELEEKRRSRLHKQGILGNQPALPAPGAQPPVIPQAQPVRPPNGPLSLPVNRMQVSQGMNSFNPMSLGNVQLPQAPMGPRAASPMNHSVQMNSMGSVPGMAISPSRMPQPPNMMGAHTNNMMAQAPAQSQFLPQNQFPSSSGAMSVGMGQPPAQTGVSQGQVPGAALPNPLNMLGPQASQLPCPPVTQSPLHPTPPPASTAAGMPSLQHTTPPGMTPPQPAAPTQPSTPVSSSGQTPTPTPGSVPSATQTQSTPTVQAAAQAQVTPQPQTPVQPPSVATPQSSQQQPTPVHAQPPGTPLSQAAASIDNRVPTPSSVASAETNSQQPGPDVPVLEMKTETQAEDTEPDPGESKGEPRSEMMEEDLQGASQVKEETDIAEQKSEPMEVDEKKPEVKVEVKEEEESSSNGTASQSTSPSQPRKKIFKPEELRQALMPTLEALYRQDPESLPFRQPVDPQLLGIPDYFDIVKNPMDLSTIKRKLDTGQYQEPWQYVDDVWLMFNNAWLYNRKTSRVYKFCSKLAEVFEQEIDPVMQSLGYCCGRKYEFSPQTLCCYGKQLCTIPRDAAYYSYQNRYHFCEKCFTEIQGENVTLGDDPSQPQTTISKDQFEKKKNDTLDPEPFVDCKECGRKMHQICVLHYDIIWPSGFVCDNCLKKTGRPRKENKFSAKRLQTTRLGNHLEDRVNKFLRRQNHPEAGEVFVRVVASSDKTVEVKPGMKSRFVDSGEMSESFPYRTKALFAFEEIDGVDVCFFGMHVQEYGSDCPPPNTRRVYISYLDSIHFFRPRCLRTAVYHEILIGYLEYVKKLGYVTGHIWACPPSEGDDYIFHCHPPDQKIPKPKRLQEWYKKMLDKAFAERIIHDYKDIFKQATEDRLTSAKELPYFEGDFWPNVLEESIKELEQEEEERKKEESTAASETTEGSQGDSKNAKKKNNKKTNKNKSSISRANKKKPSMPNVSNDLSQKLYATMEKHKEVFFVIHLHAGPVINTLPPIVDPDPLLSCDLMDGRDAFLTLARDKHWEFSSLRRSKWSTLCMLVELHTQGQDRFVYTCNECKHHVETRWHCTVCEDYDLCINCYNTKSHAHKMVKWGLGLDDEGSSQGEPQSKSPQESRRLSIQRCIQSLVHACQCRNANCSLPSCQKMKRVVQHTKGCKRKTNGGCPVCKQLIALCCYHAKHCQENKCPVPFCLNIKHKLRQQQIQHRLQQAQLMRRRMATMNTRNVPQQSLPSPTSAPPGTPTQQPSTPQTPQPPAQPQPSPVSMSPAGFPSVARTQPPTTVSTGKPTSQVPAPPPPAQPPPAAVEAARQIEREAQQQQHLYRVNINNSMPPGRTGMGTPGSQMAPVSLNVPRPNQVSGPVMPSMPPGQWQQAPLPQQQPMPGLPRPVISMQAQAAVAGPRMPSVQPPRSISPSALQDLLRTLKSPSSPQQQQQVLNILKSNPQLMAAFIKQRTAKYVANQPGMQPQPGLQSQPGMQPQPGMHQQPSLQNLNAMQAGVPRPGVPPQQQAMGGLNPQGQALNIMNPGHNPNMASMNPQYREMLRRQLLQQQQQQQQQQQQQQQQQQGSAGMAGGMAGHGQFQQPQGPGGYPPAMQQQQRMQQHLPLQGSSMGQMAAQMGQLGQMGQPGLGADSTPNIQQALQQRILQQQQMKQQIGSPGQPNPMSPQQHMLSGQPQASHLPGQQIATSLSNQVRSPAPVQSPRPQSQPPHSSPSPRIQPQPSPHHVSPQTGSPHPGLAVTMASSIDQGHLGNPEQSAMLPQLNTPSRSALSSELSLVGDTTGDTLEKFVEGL
Sequence of UniProt Q01959 (whole entry, looked up): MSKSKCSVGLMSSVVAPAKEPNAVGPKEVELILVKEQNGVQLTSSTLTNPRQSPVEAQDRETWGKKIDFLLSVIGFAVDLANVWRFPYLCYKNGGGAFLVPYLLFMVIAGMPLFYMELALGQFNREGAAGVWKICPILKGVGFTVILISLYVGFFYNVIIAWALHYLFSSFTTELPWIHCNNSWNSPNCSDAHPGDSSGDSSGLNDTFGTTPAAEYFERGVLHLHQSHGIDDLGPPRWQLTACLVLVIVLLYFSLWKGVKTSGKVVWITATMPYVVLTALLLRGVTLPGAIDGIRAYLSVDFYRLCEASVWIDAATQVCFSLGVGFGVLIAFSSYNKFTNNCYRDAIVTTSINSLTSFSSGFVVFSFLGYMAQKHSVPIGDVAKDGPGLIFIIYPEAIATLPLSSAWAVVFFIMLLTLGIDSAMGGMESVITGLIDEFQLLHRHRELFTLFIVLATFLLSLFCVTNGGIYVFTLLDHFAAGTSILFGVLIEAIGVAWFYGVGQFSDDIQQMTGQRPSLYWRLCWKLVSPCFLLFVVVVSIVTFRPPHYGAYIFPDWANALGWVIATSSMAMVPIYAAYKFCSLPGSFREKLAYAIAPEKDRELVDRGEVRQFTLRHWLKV
Sequence of UniProt P48729 (whole entry, looked up): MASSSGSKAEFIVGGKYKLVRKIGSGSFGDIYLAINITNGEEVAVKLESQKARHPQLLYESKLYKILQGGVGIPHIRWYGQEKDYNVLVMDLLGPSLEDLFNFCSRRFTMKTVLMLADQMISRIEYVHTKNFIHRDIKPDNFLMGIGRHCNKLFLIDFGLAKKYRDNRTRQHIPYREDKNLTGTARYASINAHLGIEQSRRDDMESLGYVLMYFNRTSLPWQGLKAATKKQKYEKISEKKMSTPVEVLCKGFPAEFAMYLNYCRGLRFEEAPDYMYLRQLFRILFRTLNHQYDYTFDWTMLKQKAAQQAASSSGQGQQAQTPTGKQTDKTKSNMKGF
Sequence of UniProt Q63384 (whole entry, looked up): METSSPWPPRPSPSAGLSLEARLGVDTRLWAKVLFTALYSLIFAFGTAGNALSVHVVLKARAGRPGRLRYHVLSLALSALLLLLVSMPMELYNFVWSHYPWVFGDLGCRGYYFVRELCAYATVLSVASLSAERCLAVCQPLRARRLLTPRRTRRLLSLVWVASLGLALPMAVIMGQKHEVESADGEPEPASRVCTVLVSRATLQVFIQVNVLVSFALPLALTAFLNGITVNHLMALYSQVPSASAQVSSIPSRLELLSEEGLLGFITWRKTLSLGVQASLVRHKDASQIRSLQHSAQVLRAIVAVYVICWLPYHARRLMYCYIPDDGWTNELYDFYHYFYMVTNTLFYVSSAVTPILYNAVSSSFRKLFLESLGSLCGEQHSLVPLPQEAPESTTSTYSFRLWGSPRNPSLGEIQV

SMILES | target or system | assay | test system | conditions | scale | endpoint | value
O=C(Nc1ccc(Cl)c(Cl)c1)c1ccc2c(c1)C(=O)NC2=O | MAOB |  |  |  | reference: IC50 MAO-A over IC50 MAO-B | selectivity ratio | > 2860
O=C(Nc1ccc(F)cn1)c1cc(Oc2cncnc2)cn2ncnc12 | Sodium-dependent dopamine transporter (SLC6A3, Homo sapiens, UniProt Q01959) | dopamine uptake, inhibitor | CHO-K1 | with: [3H]dopamine | reference: DAT IC50 over mGlu5 IC50 | selectivity ratio | > 135
CC[C@H](C)[C@H](NC(=O)[C@H](CCCCN)NC(=O)[C@@H](NC(=O)[C@H](CCCNC(=N)N)NC(=O)[C@@H](NC(=O)c1ccc2c(c1)C(=O)OC21c2ccc(O)cc2Oc2cc(O)ccc21)[C@@H](C)O)[C@@H](C)O)C(=O)N[C@@H](CC(=O)O)C(=O)N[C@@H](Cc1c[nH]c2ccccc12)C(=O)NC(C)(C)C(=O)N[C@@H](CCCCN)C(=O)N[C@H](C(=O)N[C@@H](CC(C)C)C(=O)NC(C)(C)C(=O)N[C@@H](CCCCN)C(=O)NCCCCCC(=O)NCCCC[C@H](NC(=O)CCCCCNC(=O)[C@H](CCCCN)NC(=O)C(C)(C)NC(=O)[C@H](CC(C)C)NC(=O)[C@@H](NC(=O)[C@H](CCCCN)NC(=O)C(C)(C)NC(=O)[C@H](Cc1c[nH]c2ccccc12)NC(=O)[C@H](CC(=O)O)NC(=O)[C@@H](NC(=O)[C@H](CCCCN)NC(=O)[C@@H](NC(=O)[C@H](CCCNC(=N)N)NC(=O)[C@@H](NC(=O)c1ccc2c(c1)C(=O)OC21c2ccc(O)cc2Oc2cc(O)ccc21)[C@@H](C)O)[C@@H](C)O)[C@@H](C)CC)[C@@H](C)CC)C(N)=O)[C@@H](C)CC | S100P and S100B (human) | binding, fluorescence anisotropy |  |  | reference: Kd S100P over Kd S100B | selectivity ratio | ~7 fold
COc1cccc(OC)c1-c1cc(NC(=O)C2(C(=O)O)CCCCC2)nn1-c1cccc2ccccc12 | Neurotensin receptor type 2 (Rattus norvegicus, UniProt Q63384) | binding |  |  | reference: Ki NTS1 over Ki NTS2 | selectivity ratio | 79 fold
Cc1ccc(COc2ccc3ccc(C(=O)N[C@@H](CCCNC(=N)CCl)C(=O)NCc4ccccc4)cc3c2)cc1 | PADI4 |  |  |  | reference: PAD4 IC50 over PAD1 IC50 | selectivity ratio | 0.698
O=C(Nc1ccc(F)c(Br)c1)c1ccc2c(c1)C(=O)NC2=O | MAOB |  |  |  | reference: IC50 MAO-A over IC50 MAO-B | selectivity ratio | > 3640
N=C(CCl)NCCC[C@H](NC(=O)c1cnc2cc(O)ccc2c1)C(=O)NCc1ccccc1 | PADI4 |  |  |  | reference: PAD4 IC50 over PAD1 IC50 | selectivity ratio | 1.2
Oc1ccccc1-c1n[nH]cc1-c1ccnc2ccccc12 | Casein kinase I isoform alpha (CSNK1A1, Homo sapiens, UniProt P48729) | enzyme activity, ADP-Glo |  |  | reference: IC50 over Yck2 IC50 | selectivity ratio | 10
O=C(Nc1cccc(Br)c1)c1ccc2c(c1)C(=O)NC2=O | MAOB |  |  |  | reference: IC50 MAO-A over IC50 MAO-B | selectivity ratio | > 222
CC(C)CC(=O)C(=O)O |  | binding, MIDAS equilibrium dialysis LC-MS | A2AR-BRIL thermostabilized | concentration not given | reference: no-protein control | log2 fold change | -0.459
N=C(CCl)NCCC[C@H](NC(=O)c1ccc2cc(-c3cc(F)c(F)c(F)c3)ccc2c1)C(=O)NCc1ccccc1 | PADI4 |  |  |  | reference: PAD4 IC50 over PAD1 IC50 | selectivity ratio | 0.687
O=C(Nc1cccc(Cl)c1)c1ccc2c(c1)C(=O)NC2=O | MAOB |  |  |  | reference: IC50 MAO-A over IC50 MAO-B | selectivity ratio | > 138
O=C(O)c1cc(=O)[nH]c(=O)n1[C@@H]1O[C@H](COP(=O)(O)O)[C@@H](O)[C@H]1O |  | binding, MIDAS equilibrium dialysis LC-MS | A2AR-BRIL thermostabilized | concentration not given | reference: no-protein control | log2 fold change | -0.181
Cc1cc2c(NC(=O)c3cccc(C(=O)O)c3)cccc2nn1 | CREB-binding protein, bromodomain (CREBBP, Homo sapiens, UniProt Q92793) | binding, BROMOscan competition binding |  |  | reference: Kd BRD4 bromodomain 1 over Kd CBP bromodomain | selectivity ratio | 37

A few entries again:
SMILES | target or system | assay | test system | conditions | scale | endpoint | value
CC(C)CC(=O)C(=O)O |  | binding, MIDAS equilibrium dialysis LC-MS | A2AR-BRIL thermostabilized | concentration not given | reference: no-protein control | log2 fold change | -0.459
N=C(CCl)NCCC[C@H](NC(=O)c1ccc2cc(-c3cc(F)c(F)c(F)c3)ccc2c1)C(=O)NCc1ccccc1 | PADI4 |  |  |  | reference: PAD4 IC50 over PAD1 IC50 | selectivity ratio | 0.687
